# Measured values pooled from the literature.
# Numbered parts are unrelated; each lists some results of a single study. Changes are numbered by the printed parent chain.

# Block 1
# Target: CCNE1, cyclin fold, Cln2 fusion (human)
# Method: yeast growth competition, sequencing
# Matrix: yeast
# Notes: strong parent motif
# Reference: not given
# Reading: higher = stronger binding
# Starting sequence: CDC25A docking peptide (human); PPHRRRLLFACSP
Variant,normalised enrichment score
PPHRRRLLFAISP [C11I],1.21
PPHRRRLLFACSS [P13S],1.1
PPHRRVLLFACSP [R6V],1.39
PPHRRRPLFACSP [L7P],0.0101
PPHMRRLLFACSP [R4M],0.807
PPHRRRLLAACSP [F9A],0.98
PPHRRRLLFYCSP [A10Y],0.663
PPHRRRLLSACSP [F9S],0.956
PPHRRRLLFATSP [C11T],1.37
PPHRRRLLIACSP [F9I],0.661
PPHRRRLLFAWSP [C11W],1.55
PPHRRRLDFACSP [L8D],3.41
EPHRRRLLFACSP [P1E],2.76
PPHRRRQLFACSP [L7Q],0.142
PPNRRRLLFACSP [H3N],0.771
HPHRRRLLFACSP [P1H],1.02
PPHRRRLLFADSP [C11D],1.87
PPHRAAAAFACSP [R5A R6A L7A L8A],0.172

# Block 2
# Target: RNA binding protein fox-1 homolog 2, RRM domain, GST-SBP tag (RBFOX2, Homo sapiens, UniProt O43251-10, residues 100-194)
# Method: RNA Bind-n-Seq
# Form: RNA
# Matrix: in vitro
# Tested at: 365 nM
# Notes: natural RNA segment, single round, ends assumed
# Reference: no-protein control
# Reading: higher = stronger binding
# Construct (chain): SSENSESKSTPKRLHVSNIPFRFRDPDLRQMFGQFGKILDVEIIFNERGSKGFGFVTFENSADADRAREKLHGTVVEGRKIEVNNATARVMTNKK
Sequence,RBNS enrichment (R)
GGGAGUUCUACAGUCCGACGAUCCAUCAGCUCUGCCAAGCUGAGCCUGGCCAAGCUAGGUGGACAGACCCUUGCAGUGAUGUCCGUUUGUCCAGAUUCUGCCAGUCAUCACUGGACACGUCUCCUCGCAGCUGUGGAAUUCUCGGGUGCCAA,0.343
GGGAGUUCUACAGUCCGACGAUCUUGAUGGGGUCUUUCCAUCCUCACCCUUAGACUCUCAACCAAAGAGAAAGGGCUGGAGGAUGCCCCCCACAUACUGCCACUAUUUAUUGUGGGCCCUGGAGGCUCCCUGCUGGAAUUCUCGGGUGCCAA,0.606
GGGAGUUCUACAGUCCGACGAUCAAGAAAAGGGACCUAGCUUAGCCAUGGCCCUGGAGAUGAAGUUACUGAGGCUGAGGGUAGAUGGGUUCAGUUCAGUGUCUCCUGCCCAGACUGGACAUCUUGGUCUUUUUUGGAAUUCUCGGGUGCCAA,0.552
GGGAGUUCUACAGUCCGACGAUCCCAGGGCAAUGACAGCCAUUCUUGUCUUAGGGAUUAUGGAUCGGGGUAUGAAGUGUGCACACGCAGCCCAACAACGGGCAGUGGUCUCUGUGCUCCUAGGCAUCCAGCACUGGAAUUCUCGGGUGCCAA,0.404
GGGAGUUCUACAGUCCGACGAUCCGUCUUCACCCCGUCUCCACCCCACCUCUUCUGGCCCCCAGCCUCACUGUGGCUCUCUACAGUACCUAACCUGCUACUAAUCACGGAGAAGAAUGUGGAGGGAAAGAACAUGGAAUUCUCGGGUGCCAA,0.296
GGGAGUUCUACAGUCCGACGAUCUUCCACGGCUGGAUACCUGUGUGUCUCCAUAAAAGUCCUGUCACCAAGGACGUUAAAGGCAUUUUAUUCCAGCGUCUUCUAGAGAGCUUAGUGUAUACAGAUGAGGGUGUUGGAAUUCUCGGGUGCCAA,0.335
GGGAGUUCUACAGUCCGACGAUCACUGGGAUAUAUUUUUCUAAUUUCUAGUGAUCUUAGUAUGCAUAUUUUUUUCUAACCUUUCAAAAGUUUGAUUCAACCGUCUUACCUUGUAGUGUUAAGAUUCCAUACAGUGGAAUUCUCGGGUGCCAA,0.316
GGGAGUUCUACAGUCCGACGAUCACCUUUAAAAGAUCAGUAAGAUGUUUCUCAUAUUUAUGAACUUAGCACUUGAAAACCAACACACUCAGAAAAAGCCACAGAUUGUUAAAAGCCUAAUUGUAGUUCGUAACUGGAAUUCUCGGGUGCCAA,0.532
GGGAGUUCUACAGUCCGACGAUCGGAGAGCUUUGUGCCUAUACCCAGUGUGUGGCUUUCCUCCAACCCCUUCCCAGACUUGUGAUCCAUUCCCUGCAGCAAAGGAACACUGGAAGAAAGAUGGAGCUCCUCCAUGGAAUUCUCGGGUGCCAA,0.35
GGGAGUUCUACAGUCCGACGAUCCUAUUCUCAGAGGUUUGGACUUUCGUAUUGUAAUUAGCUCUGUUGGCAUGGUGACUUGUCACUCCUGCCAAAAAUAUUAAAAAUGCCUUUUUUGGAAGGACUACAGAAAGUGGAAUUCUCGGGUGCCAA,0.457
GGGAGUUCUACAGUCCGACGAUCAAGAGGUUAGCUUUGGCAUUGGAAGAUGAGAUUUUUGCUUACCUGUAGUAUUUCUGUACAUACCUGUUUCCAGCAACUUCAGUGUCAAUGUUUUUGAUUUAUUUGUGUCUUGGAAUUCUCGGGUGCCAA,0.425
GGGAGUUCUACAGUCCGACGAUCUUGGAAACCAGGCCUGGGCCUCAAAAUGGAGAUGGAUCCCAGGUCUUGUGGGACCCUGGGAUGUUUGGGGACUUUACUAUCUAGCACCCCAGUAGGCCUGUCCUGGCCAGUGGAAUUCUCGGGUGCCAA,0.901

# Block 3
# Target: ATF3, bZIP domain (human)
# Method: DHFR protein complementation
# Matrix: yeast
# Notes: single substitutions, most at no-binding floor
# Reference: wild-type JUN-FOS pair
# Reading: higher = stronger binding
# Starting sequence: JUN, bZIP domain (human); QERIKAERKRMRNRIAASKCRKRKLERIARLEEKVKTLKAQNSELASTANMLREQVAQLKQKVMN; partner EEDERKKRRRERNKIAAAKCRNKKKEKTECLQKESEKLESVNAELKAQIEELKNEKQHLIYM
Variant,binding fitness
Q58R,-0.248 natural log
S43G,-0.127 natural log
A49E,-0.36 natural log
N42K,-0.456 natural log
A57G,-0.22 natural log
Q55L,-0.449 natural log
M51V,-0.129 natural log
E54C,-0.397 natural log
A57T,-0.161 natural log
E33P,-1.25 natural log
A29I,-0.256 natural log
V35R,-0.951 natural log
E44I,-0.171 natural log
S47Y,-0.146 natural log
Q41R,-0.247 natural log
I28F,-0.256 natural log
A46D,-0.523 natural log
Q41I,-0.111 natural log

# Block 4
# Target: ABI1, truncated, D143A, DHFR fusion (Arabidopsis thaliana)
# Method: DHFR PCA, deep sequencing
# Matrix: yeast
# Notes: methotrexate growth selection, single substitutions
# Added: (+)-ABA 0.11 µM
# Reference: wild-type fitted maximum
# Reading: higher = stronger binding
# Starting sequence: PYL1, truncated, DHFR fusion (Arabidopsis thaliana); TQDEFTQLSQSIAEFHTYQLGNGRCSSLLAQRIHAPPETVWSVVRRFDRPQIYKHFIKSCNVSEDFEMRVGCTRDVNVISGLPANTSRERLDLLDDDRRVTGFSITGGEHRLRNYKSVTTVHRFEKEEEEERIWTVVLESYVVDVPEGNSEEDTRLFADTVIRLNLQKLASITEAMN
Variant,relative binding score
S63C,25.4%
G108W,-1.23%
I79G,1.05%
H34K,42.1%
D96S,-6.53%
R49K,50.2%
G71T,-3.05%
P37T,7.42%
D97G,13.1%
K168D,10.9%
H55P,86.1%
E131W,18.3%
F47Q,-3.16%
I57M,-2.06%
Q19P,47.9%
H16F,-8.11%
T73Q,12.4%
H110F,17%
E129V,22.3%
D48Q,-8.28%
S171I,13%

# Block 5
# Target: Prothrombin, mature alpha-thrombin (F2, Homo sapiens, UniProt P00734)
# Method: aptamer microarray, sandwich
# Form: DNA with 2'F-ANA
# Matrix: in vitro
# Tested at: 200 nM
# Notes: whole 15-mer aptamer, many near background
# Added: Cy3 exosite-II aptamer, 400 nM
# Reading: higher = stronger binding
# Sequence: GGTTGGTGTGGTTGG
Modification,mean fluorescence intensity
2'F-ANA at 7 8 9 11,607 a.u.
2'F-ANA at 2 3 5 6 8 11 15,183 a.u.
2'F-ANA at 1 3 4 6 8 9 10 12 13 14,53.5 a.u.
2'F-ANA at 1 2 3 4 6 9 10 13 14,52.4 a.u.
2'F-ANA at 2 5 7 10 13,109 a.u.
2'F-ANA at 1 2 3 4 6 7 9 10 15,61.4 a.u.
2'F-ANA at 6 8 12 14 15,232 a.u.
2'F-ANA at 1 3 4 7 12 14,103 a.u.
2'F-ANA at 2 5 6 7 8 9 11 12 13 15,87 a.u.
2'F-ANA at 2 3 4 5 9 10 11 12 13 14,60.6 a.u.
2'F-ANA at 3 5 7 12 13 15,180 a.u.
2'F-ANA at 1 3 9 10 11 13 15,120 a.u.
2'F-ANA at 1 2 3 4 5 6 8 9 10 12 14,49.1 a.u.
2'F-ANA at 1 2 6 9 10 13 14 15,50.9 a.u.
2'F-ANA at 1 3 5 6 10 12 14 15,53 a.u.
2'F-ANA at 3 4 5 6 8 9 11 13,117 a.u.
2'F-ANA at 4 6 7 9 11 12 15,342 a.u.
2'F-ANA at 2 4 7 8 11 12 13 14 15,134 a.u.
2'F-ANA at 1 3 6 7 8 9 11 12 13 14,118 a.u.
2'F-ANA at 3 6 7 10 14,475 a.u.
2'F-ANA at 3 5 7 8 9 10 13 14 15,111 a.u.
2'F-ANA at 1 3 4 6 9 11 13 15,97.8 a.u.
2'F-ANA at 5 9 10 11 12 14 15,60.8 a.u.
2'F-ANA at 2 3 4 6 7 10 11 12 13 14 15,122 a.u.
2'F-ANA at 2 3 4 6 7 13 15,411 a.u.

# Block 6
# Target: Histone acetyltransferase KAT6A, both winged helices, GST fusion (KAT6A, Homo sapiens, UniProt Q92794, residues 1-181)
# Method: protein binding microarray
# Form: double-stranded DNA, one strand shown
# Matrix: in vitro
# Tested at: not given
# Notes: 8-mer, flanks averaged, mean of 2 arrays, mostly near background
# Reference: not given
# Reading: higher = stronger binding
# Target sequence (chain): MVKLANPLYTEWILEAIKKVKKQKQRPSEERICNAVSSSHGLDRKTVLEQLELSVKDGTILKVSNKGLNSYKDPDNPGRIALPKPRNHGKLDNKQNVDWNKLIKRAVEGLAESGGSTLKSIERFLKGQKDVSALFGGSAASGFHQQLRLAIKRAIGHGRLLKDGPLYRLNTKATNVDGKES
Sequence,E-score
TGCCTAAA,-0.213
CCCATGAC,-0.113
GATACGCA,0.108
AACGCCTA,0.044
ACATATAT,0.0156
AACCCGAG,0.188
AGTAAGTG,-0.0649
CGGAGATC,0.0492
GAACTGAC,-0.0135
ACGCCCGA,0.252
AGGTGTTC,-0.107
ATTCTTCA,-0.0762
CATAGGAC,-0.0791
CAGAGTAG,-0.171
ACCAGAAG,-0.248
ACATACGA,-0.015
CTTCTCAA,-0.186
GCAAGGAA,-0.0967
TTGAGCAA,-0.152
ATGGTAAG,-0.0102
CCCGTACG,0.328
GCAGAAAC,0.0689
CCGGTGCG,0.263
GTCTTAAC,-0.132
ACTGGAAA,-0.144

# For quick reference, copied from above (block 4):
Variant,relative binding score
D97G,13.1%
E129V,22.3%
P37T,7.42%
S171I,13%
D48Q,-8.28%
G71T,-3.05%
G108W,-1.23%
T73Q,12.4%
E131W,18.3%
K168D,10.9%
H34K,42.1%
F47Q,-3.16%
H110F,17%
D96S,-6.53%
S63C,25.4%
